# Assay results collected from several papers.
# A part holds a random share of what one study measured. “And” joins repeats or separate records; there may be more than shown.
# Sequence of UniProt Q9H2K8 (whole entry, looked up): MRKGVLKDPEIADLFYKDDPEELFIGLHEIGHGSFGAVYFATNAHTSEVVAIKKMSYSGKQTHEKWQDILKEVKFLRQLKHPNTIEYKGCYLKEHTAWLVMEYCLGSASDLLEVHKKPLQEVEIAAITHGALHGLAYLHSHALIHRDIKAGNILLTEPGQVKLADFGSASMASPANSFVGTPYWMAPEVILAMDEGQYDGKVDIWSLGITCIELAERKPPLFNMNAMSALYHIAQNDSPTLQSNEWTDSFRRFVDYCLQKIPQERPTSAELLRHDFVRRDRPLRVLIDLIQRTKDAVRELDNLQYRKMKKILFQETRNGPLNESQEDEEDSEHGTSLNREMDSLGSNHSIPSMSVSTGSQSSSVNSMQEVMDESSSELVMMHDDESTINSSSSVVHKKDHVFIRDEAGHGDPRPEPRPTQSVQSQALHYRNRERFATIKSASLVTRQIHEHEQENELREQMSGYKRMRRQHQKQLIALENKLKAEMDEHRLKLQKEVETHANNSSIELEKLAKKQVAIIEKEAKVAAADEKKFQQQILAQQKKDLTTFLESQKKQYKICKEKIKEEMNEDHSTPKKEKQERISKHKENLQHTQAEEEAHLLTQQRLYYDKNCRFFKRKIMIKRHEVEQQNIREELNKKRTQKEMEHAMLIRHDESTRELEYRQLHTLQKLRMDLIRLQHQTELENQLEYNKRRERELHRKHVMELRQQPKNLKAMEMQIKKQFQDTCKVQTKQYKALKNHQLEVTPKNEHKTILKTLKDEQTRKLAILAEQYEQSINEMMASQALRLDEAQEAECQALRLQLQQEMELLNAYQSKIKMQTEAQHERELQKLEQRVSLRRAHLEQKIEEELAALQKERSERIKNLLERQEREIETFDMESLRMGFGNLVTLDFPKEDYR

# Study 1 — read-out: enzyme activity; action: inhibitor; concentration: 0.5 µM; reference: control
# Target: Serine/threonine-protein kinase PAK 5 (PAK5, Homo sapiens, UniProt Q9P286)
# Sequence of UniProt Q9P286 (whole entry, looked up): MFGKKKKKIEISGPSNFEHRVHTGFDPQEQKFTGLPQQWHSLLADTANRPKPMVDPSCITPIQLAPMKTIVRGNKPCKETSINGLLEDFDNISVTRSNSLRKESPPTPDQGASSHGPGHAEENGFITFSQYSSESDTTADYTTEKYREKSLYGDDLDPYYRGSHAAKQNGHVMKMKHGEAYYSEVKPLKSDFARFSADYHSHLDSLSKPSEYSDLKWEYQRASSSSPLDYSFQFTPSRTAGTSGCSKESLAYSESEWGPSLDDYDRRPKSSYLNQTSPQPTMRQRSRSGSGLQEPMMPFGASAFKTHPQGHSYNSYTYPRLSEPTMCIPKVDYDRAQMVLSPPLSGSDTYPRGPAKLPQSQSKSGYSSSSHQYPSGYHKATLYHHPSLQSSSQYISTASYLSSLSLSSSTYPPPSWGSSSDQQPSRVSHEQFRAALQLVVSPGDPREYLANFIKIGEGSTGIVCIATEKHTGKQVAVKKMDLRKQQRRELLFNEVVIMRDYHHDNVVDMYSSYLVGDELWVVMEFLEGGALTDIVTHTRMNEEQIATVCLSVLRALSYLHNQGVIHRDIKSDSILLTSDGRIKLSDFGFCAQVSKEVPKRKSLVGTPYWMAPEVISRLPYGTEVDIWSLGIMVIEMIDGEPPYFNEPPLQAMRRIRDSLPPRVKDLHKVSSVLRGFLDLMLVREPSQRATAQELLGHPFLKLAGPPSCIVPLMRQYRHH
Compound,remaining activity [%]
Cc1ccc(NC(=O)c2ccc(CN3CCN(C)CC3)cc2)cc1Nc1nc(-c2cccnc2)cs1,92
O=C1NC(=O)C(c2cn(CCCn3ccnc3)c3ccccc23)=C1Nc1ccccc1,94.2
COc1cc2ncnc(Nc3ccc(Oc4ccccc4)cc3)c2cc1OC,103
Nc1ccc2ncnc(NCCc3ccc(Oc4ccccc4)cc3)c2c1,106
Nc1[nH]nc2nc3ccccc3nc12,98.4
O=C(CCCc1ccc(-c2ccccc2F)cc1)Nc1ccc(O)cc1,90.3
COc1ccc(CNC(=O)Nc2ncc([N+](=O)[O-])s2)cc1,95.4
CC(C)[C@H](CO)Nc1nc(Nc2cc(N)cc(Cl)c2)c2ncn(C(C)C)c2n1,44.3

# Study 2 — method: protein-binding microarray; molecule type: double-stranded DNA, one strand shown; sample: in vitro; concentration: not given; reading: higher = stronger binding
# Target: Protein C-ets-1 (ETS1, Homo sapiens, UniProt P14921, residues 1-441, Y397A, full length assumed)
# Notes: k-mer, scored over probes, only values ≥0.25
# Construct (chain): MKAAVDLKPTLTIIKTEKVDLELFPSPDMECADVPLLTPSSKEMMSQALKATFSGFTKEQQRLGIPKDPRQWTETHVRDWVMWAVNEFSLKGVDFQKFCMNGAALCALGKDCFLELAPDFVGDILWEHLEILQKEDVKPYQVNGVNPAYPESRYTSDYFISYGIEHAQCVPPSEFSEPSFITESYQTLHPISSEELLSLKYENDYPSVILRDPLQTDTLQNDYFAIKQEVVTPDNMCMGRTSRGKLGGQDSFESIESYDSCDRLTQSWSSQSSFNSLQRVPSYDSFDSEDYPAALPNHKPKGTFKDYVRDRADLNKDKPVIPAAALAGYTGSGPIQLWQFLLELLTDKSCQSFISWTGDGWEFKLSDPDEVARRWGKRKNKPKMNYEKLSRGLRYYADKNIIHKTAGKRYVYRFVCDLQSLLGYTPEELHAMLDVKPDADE
Oligonucleotide,E-score
CATATCCG,0.379
ACAAAAAG,0.256
ACCCGCCC,0.359
GACAAATA,0.321
GTGTCGTA,0.269
TTGGCAAA,0.433
CAACAATG,0.312
ACACAAAC,0.304

# Mixed results
Compound,target or system,test,test system,conditions,scale,endpoint,value
C[C@H]1COc2c(N3CCN(C)CC3)c(F)cc3c(=O)c(C(=O)O)cn1c23,A-375,,,"100 µM, 36 h",,viability,105%
CN([C@@H]1CCc2c(CC(=O)O)c3ccccc3n2C1)S(=O)(=O)c1ccc(F)cc1,"Serine/threonine-protein kinase TAO3 (TAOK3, Homo sapiens, UniProt Q9H2K8)","cell-free assay, competition with immobilised ligand",,1 µM,,remaining binding,73%
CN(C)CCC[C@@]1(c2ccc(F)cc2)OCc2cc(C#N)ccc21,mouse MPNST tumor cells,"high-content immunofluorescence imaging, item: nuclear SOX9",,"10 µM, 12 h, mean of 2 replicates","reference: DMSO control, higher = more nuclear SOX9",nuclear SOX9 intensity,110 % of DMSO and 129 % of DMSO
CNc1nc(NC2CCOC2c2ccc(F)c(F)c2)ncc1Br (centres unmarked),,,"mouse, microsomes or S9","2 µM, 0.5 h",,remaining compound,1.87%

# Repeated from above (study 2):
Oligonucleotide,E-score
CAACAATG,0.312
ACACAAAC,0.304
